Measured values gathered from unrelated publications.
± marks the error that the study gave.

With `CC(C)c1ccc(N(C)c2ccc3c(c2)OCC[C@H]3CNc2cnccc2C(=O)O)cc1` the IC50 was 179 nM (NCI-H2228; cell viability, CellTiter-Glo; 7 days).
`Cn1ncc2cc(-c3cncc(Cl)c3N3CCC4(CCNC4=O)CC3)ccc21` — result for “log2 fold change”: 1.06 (LS174T; gene expression, microarray, measured: SEMA4D mRNA; concentration not given, 4 h; relative to: untreated cells).
`CCN(C(=O)c1cc(F)ccc1Oc1nncnc1N1CCC2(C1)CN([C@H](CCCN(C)CCOC)C(C)C)C2)C(C)C` has a GI50 of over 10000 nM (SNB-75; brain; 72 h).
For `O=C(NCc1ccc(OC(F)(F)F)cc1)[C@H]1CCCN(c2ncnc3[nH]c(-c4cc(F)c(F)c(F)c4)cc23)C1`, the inhibition was -6.73% (NCI-H2228; cell growth or viability, MTT; 0.008 µg/mL, 72 h).
For `CCCC[C@H](NC(=O)[C@H](CC(C)C)NC(=O)[C@H](CO)NC(=O)[C@H](CO)NC(=O)[C@H](C)NC(=O)[C@H](CO)NC(=O)[C@H](C)N)C(=O)N[C@@H](CC(=O)O)C(=O)N[C@@H](CCCCN)C(=O)N[C@@H](CCC(=O)O)C(=O)N[C@@H](C)C(=O)N[C@H](C(=O)N[C@@H](Cc1ccc(O)cc1)C(=O)N[C@@H](Cc1ccccc1)C(=O)N[C@@H](C)C(=O)N[C@@H](Cc1c[nH]cn1)C(=O)N[C@@H](CC(C)C)C(=O)N[C@@H](CC(=O)O)C(=O)N[C@H](C(=O)N[C@H](C(=O)N[C@@H](Cc1c[nH]c2ccccc12)C(=O)O)[C@@H](C)CC)[C@@H](C)CC)C(C)C`, the Emax was 81 ± 4% (COS-7 ETBR-GFP; calcium flux, agonist; ETBR/ETAR ratio 1:1).
`COc1ccc2c(c1)OC1=C(C(=O)CCC1)C2c1c[nH]c2ccccc12` (stereo not drawn): mRNA level “decreased” (mouse preadipocytes; qPCR, measured: IRS-1; IC20, 14 days, adipogenic induction; relative to: untreated cells).
The inhibition of `O=C(NCc1ccc(OC(F)(F)F)cc1)[C@H]1CCCN(c2ncnc3[nH]c(-c4ccc(C(F)(F)F)cc4)cc23)C1` is reported as 17.4% (NCI-H2228; cell growth or viability, MTT; 0.2 µg/mL, 72 h).
Under “log2 fold change”, `Cc1ncsc1-c1ccc(C(C)NC(=O)C2CC(O)CN2C(=O)C(NC(=O)CCCCCCCCCCN2CCCC(Nc3ncc(Cl)c(Nc4ccccc4S(=O)(=O)C(C)C)n3)C2)C(C)(C)C)cc1` (stereo not drawn) is recorded as -1.17 (22Rv1; RNA-seq, measured: POLI mRNA; concentration not given; relative to: DMSO).
With `[BH3-][P+]1(c2ccccc2)CCCCC1` the necrotic cells was 2.45% (SW480; annexin V/PI flow cytometry; IC50, 72 h).
`CCc1ccc(OCc2nnc(SC3CCCC3=O)n2C(C)c2ccccc2)cc1` (stereo not drawn) gave an inhibition of 47.3% (HEK293T; FOPFlash reporter gene, inhibitor; 10 µM, 24 h, counter-screen, viability-normalized).
For `Cc1cc(N)ccc1-c1cc2c(N3CCC[C@H](C(=O)NCc4ccc(OC(F)(F)F)cc4)C3)ncnc2[nH]1`, the inhibition was 66.2% (NCI-H2228; cell growth or viability, MTT; 1 µg/mL, 72 h).
With `CNS(=O)(=O)Nc1nccc(Cc2c(C)c3ccc(Oc4ncccc4F)cc3oc2=O)c1F` the IC50 was over 1000 nM (NCI-H647; cell viability; 7 days).
With `O=C(NCc1ccc(OC(F)(F)F)cc1)[C@H]1CCCN(c2ncnc3[nH]c(-c4cccnc4)cc23)C1` the inhibition was 58.4% (NCI-H2228; cell growth or viability, MTT; 0.2 µg/mL, 72 h).
`CCN(CC)CC(=O)Nc1cccc(-n2cc(-c3ccc4ccc(-c5cn(-c6cccc(NC(=O)CN(CC)CC)c6)nn5)cc4c3)nn2)c1` gave a fold regulation of -1.2 (RCC4; PCR angiogenesis array, measured: EFNA1; 5 x IC50, 4 h, normoxia; relative to: untreated).
`COc1ccc(-c2cc3c(N4CCC[C@H](C(=O)NCc5ccc(OC(F)(F)F)cc5)C4)ncnc3[nH]2)cn1` has an inhibition of 4.09% (NCI-H2228; cell growth or viability, MTT; 0.008 µg/mL, 72 h).
`CN1CCCNC(=O)c2cccc(c2)C(=O)NCCCN(C)CCCNc2cccc3c2C(=O)c2cccc(c2C3=O)NCCC1`: “log2 fold change” 1.47 (SAS; RNA-Seq, measured: CYB5D2 mRNA; 1 µM, 6 h; relative to: untreated cells).
`Cc1noc(C)c1-c1cc2c(N3CCC[C@H](C(=O)NCc4ccc(OC(F)(F)F)cc4)C3)ncnc2[nH]1` gave an inhibition of 79% (NCI-H2228; cell growth or viability, MTT; 5 µg/mL, 72 h).
With `CO[C@@H]1[C@@H](OC(N)=O)[C@@H](O)[C@H](Oc2ccc3c(O)c(NC(=O)c4ccc(O)c(CC=C(C)C)c4)c(=O)oc3c2C)OC1(C)C` the colony survival was 0.339% (DLD-1 BRCA2-/-; 100 µM, replicate A; relative to: untreated).
